# Measured values pooled from the literature.
# Every numbered part comes from another study and shows a few of its results, in no order. “And” joins repeats or separate records; there may be more than shown.
# Chain of UniProt Q6XUX3 (whole entry, looked up): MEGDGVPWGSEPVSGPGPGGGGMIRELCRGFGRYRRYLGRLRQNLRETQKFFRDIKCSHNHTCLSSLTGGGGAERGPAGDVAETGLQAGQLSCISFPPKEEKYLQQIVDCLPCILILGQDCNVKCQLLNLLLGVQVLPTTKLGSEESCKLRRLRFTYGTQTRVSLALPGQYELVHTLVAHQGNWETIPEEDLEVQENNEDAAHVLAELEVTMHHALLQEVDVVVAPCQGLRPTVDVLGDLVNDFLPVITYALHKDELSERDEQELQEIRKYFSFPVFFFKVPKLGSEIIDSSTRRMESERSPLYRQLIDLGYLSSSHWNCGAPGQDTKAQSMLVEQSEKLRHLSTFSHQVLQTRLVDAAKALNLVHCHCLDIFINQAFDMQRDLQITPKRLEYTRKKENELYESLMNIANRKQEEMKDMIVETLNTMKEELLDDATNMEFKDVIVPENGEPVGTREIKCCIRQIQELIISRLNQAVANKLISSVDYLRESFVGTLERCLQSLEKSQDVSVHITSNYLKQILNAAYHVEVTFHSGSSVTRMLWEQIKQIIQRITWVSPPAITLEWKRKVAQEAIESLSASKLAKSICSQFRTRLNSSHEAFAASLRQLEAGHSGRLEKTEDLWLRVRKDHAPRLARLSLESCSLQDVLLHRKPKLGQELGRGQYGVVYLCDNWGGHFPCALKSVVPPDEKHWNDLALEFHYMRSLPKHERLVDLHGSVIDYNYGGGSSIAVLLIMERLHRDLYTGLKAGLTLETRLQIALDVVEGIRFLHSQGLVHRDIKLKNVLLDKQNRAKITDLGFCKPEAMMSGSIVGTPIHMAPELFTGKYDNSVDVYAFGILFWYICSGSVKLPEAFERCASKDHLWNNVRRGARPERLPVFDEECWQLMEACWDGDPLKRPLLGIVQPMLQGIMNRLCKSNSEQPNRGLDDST
# Chain of UniProt Q96J92 (whole entry, looked up): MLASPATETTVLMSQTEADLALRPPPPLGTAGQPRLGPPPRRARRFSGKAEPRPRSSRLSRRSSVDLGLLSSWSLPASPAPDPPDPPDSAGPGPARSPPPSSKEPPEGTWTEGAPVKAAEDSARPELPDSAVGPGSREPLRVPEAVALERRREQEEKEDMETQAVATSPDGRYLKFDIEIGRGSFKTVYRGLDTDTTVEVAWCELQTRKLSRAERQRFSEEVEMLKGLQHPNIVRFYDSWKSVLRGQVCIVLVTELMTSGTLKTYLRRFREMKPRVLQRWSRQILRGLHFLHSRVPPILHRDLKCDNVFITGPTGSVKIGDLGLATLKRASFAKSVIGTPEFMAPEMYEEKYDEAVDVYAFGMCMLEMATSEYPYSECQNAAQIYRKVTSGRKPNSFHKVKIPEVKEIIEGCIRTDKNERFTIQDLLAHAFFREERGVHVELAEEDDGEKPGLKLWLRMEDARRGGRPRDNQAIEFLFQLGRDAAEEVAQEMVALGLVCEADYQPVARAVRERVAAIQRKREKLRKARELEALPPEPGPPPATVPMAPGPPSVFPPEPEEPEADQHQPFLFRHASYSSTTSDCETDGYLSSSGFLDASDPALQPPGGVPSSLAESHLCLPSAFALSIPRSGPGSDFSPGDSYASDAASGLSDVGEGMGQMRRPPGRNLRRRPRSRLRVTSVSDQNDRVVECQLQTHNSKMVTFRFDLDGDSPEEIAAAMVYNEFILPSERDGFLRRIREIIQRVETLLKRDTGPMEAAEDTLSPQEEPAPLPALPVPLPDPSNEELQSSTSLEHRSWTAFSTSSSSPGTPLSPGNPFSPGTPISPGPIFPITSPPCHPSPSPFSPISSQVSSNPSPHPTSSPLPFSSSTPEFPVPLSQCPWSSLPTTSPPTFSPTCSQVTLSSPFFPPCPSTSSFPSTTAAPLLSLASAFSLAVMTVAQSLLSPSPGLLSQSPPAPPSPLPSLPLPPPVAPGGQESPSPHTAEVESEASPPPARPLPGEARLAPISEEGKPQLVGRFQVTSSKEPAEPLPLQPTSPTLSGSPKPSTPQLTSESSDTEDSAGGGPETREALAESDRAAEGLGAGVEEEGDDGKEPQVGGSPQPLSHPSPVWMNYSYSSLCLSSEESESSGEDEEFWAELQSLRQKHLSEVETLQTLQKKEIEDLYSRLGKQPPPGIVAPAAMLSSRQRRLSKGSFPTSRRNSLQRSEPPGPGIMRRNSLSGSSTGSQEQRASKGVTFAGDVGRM
# Chain of UniProt Q9HC98 (whole entry, looked up): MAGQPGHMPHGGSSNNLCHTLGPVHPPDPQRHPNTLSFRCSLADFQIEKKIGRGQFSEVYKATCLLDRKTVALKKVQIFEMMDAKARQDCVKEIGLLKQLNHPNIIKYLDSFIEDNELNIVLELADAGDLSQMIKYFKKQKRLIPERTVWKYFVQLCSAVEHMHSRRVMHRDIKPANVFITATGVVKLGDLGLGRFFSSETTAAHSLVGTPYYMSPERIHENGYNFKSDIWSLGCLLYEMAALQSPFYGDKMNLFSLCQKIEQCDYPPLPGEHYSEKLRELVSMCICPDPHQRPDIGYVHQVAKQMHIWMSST
# Chain of UniProt P27037 (whole entry, looked up): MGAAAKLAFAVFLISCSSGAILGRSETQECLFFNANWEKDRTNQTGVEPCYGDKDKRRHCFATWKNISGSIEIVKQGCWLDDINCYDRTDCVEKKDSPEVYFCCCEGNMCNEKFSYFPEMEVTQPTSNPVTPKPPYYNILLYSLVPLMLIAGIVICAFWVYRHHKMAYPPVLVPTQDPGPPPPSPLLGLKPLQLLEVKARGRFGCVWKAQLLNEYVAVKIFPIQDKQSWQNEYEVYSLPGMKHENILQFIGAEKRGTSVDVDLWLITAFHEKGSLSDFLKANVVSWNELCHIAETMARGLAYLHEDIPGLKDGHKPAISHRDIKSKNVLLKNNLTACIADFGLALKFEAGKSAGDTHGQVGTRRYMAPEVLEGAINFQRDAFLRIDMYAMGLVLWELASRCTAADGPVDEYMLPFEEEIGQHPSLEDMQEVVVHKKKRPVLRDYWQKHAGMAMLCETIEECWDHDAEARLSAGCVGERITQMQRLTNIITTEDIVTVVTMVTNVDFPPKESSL
# Chain of UniProt P10721 (whole entry, unmodified, looked up): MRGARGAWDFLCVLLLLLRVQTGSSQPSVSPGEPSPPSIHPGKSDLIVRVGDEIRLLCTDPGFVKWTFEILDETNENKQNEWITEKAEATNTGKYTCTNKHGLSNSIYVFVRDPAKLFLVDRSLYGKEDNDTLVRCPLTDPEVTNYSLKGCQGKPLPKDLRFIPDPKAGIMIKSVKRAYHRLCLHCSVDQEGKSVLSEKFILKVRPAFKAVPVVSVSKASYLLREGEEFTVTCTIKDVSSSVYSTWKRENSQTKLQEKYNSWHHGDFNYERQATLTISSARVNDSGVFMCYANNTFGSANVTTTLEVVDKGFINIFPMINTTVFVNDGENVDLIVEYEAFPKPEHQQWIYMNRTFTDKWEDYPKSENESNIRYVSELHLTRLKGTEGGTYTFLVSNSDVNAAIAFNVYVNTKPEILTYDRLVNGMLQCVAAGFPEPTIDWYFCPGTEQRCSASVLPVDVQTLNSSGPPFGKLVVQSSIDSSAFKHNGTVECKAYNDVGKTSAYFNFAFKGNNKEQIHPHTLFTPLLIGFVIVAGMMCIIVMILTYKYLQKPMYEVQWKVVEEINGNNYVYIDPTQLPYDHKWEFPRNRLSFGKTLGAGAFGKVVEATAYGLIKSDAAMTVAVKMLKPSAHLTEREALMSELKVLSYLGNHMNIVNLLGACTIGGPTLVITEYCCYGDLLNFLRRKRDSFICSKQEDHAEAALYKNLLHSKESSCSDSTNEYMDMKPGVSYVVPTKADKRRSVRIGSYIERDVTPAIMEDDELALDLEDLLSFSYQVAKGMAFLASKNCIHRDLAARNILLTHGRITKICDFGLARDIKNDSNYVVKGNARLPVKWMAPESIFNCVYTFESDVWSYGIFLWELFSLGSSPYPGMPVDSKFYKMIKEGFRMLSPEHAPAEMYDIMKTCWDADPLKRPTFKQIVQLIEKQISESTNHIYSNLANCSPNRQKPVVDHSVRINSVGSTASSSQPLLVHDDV
# Chain of UniProt Q8WU08 (whole entry, looked up): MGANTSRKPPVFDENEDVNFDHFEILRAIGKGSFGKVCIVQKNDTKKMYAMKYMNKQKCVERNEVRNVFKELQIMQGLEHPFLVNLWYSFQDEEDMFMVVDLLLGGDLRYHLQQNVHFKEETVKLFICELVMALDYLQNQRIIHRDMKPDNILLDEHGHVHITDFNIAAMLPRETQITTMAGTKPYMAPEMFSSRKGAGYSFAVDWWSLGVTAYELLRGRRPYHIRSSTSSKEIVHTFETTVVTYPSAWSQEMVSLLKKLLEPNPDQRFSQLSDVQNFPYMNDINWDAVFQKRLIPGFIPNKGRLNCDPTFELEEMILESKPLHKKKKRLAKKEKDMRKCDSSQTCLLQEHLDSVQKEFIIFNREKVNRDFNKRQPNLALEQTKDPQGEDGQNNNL

# Sample 1 — effect on: enzyme activity; action: inhibitor; concentration: 0.5 µM; reference: control
# Target: Calcium/calmodulin-dependent protein kinase type 1 (CAMK1, Homo sapiens, UniProt Q14012)
# Chain of UniProt Q14012 (whole entry, looked up): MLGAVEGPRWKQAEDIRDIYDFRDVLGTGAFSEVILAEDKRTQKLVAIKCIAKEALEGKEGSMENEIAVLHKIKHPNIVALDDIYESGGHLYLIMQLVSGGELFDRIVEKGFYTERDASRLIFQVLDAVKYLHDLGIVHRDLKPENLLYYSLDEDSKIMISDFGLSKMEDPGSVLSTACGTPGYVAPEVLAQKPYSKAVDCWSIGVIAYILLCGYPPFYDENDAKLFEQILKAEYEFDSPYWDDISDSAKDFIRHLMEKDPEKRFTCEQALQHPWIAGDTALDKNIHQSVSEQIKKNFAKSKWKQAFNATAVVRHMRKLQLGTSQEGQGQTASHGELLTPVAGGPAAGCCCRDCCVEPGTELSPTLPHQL
Structure (SMILES),remaining activity [%]
Ic1cccc(CSc2nnc(-c3ccncc3)o2)c1,102
Nc1cccc(-c2cc3c(Oc4cccc(O)c4)ncnc3[nH]2)c1,112
N#Cc1c(NC(=O)c2cccc3ccccc23)sc2c1CCCC2,108
CCN(CC)CCNC(=O)c1c(C)[nH]c(/C=C2\C(=O)Nc3ccc(F)cc32)c1C,75.2
Cc1cc2ncc(-c3ccccc3)nc2cc1C,96.2
COc1cc2c(cc1OC)-c1[nH]nc(Nc3cccc(F)c3)c1C2,98.4
CCN(CC)C(=O)c1ccc(Nc2nc(OCC3CCCCC3)c3[nH]cnc3n2)cc1,85.6
CCOc1nc(NC(=O)Cc2cc(OC)ccc2OC)cc(N)c1C#N,103
O=C1c2ccccc2-c2n[nH]c3cccc1c23,96.8
CCN(CC)CCNC(=O)c1c(C)[nH]c(/C=C2\C(=O)Nc3ccc(Cl)cc32)c1C,75.9
COc1cc2ncnc(Nc3cccc(Cl)c3)c2cc1OC,99.2
O=C(Nc1cccc(Nc2nccc(Nc3cccc(C(F)(F)F)c3)n2)c1)C1CC1,95.5
c1ccc(-c2[nH]ncc2-c2ccnc3ccccc23)nc1,96.1
Cc1nc2cc3nc(-c4cccs4)cnc3cc2n1C,98.1
COc1cc2ncnc(Nc3ccc(O)c(Br)c3)c2cc1OC,103
c1ccc(-c2cnc(Nc3ccc(OCCN4CCCC4)cc3)s2)cc1,86.3
O=c1cc(-c2cccc3c2Sc2ccccc2S3)oc(N2CCOCC2)c1,94.2
CN(C)C[C@H]1CCn2c(c(C3=C(c4cn(C)c5ccccc45)C(=O)NC3=O)c3ccccc32)C1,105
N#C/C(=C\c1ccc(O)c(O)c1)C(=O)NCc1ccccc1,93
Cn1nc2c3c(cccc31)C(=O)c1ccccc1-2,104
O=C(NC(NC(=S)Nc1ccc(F)c([N+](=O)[O-])c1)C(Cl)(Cl)Cl)C(c1ccccc1)c1ccccc1 (stereo not shown),93.1
C[C@@H]1CCN(C(=O)CC#N)C[C@@H]1N(C)c1ncnc2[nH]ccc12,99.3
O=C1C(Cl)=C(N2C(=O)CCC2=O)C(=O)c2ccccc21,98.3

# Sample 2 — cell line: A-375; concentration: 100 µM; time: 36 h
SMILES,viability
CSc1nc2cc(Cl)c(Oc3cccc(Cl)c3Cl)cc2[nH]1,0.47%
Cc1ccc(-c2ncc(Cl)cc2-c2ccc(S(C)(=O)=O)cc2)cn1,105%
O=C(CCCl)NCc1ccccc1,107%
CCC1(C)CC(=O)NC1=O (stereo not shown),116%
CCCC(C(=O)OCCN(CC)CC)(c1ccccc1)c1ccccc1,0.791%
C[C@]12CCC3=C4CCC(=O)C=C4CC[C@H]3[C@@H]1CC[C@@]2(O)CC#N,106%
Nc1c(CC(=O)O)cccc1C(=O)c1ccc(Br)cc1,56.6%
COc1cc(C(=O)N2CCOCC2)cc(OC)c1OC,105%
COC1=CC(=O)C[C@@H](C)[C@]12Oc1c(Cl)c(OC)cc(OC)c1C2=O,37.4%
CC[C@H](C)[C@H](N)C(=O)O,114%

# Sample 3 — technique: competition with immobilised ligand; concentration: 1 µM
# SMILES: COc1ccc2cc(OCC3(C(=O)O)CN(C(=O)c4ccc(F)cc4)C3)ccc2c1
target,effect on,remaining binding [%]
"KIT (Homo sapiens, UniProt P10721, D816H)",cell-free assay,82
"CAMKK2 (Homo sapiens, UniProt Q96RR4)",cell-free assay,94
"NEK6 (Homo sapiens, UniProt Q9HC98)",cell-free assay,100
"FLT3 (Homo sapiens, UniProt P36888, ITD)",cell-free assay,100
"Aurora kinase B (AURKB, Homo sapiens, UniProt Q96GD4)",cell-free assay,100
"PAK1 (Homo sapiens, UniProt Q13153)",cell-free assay,87
"WEE2 (Homo sapiens, UniProt P0C1S8)",cell-free assay,100
"RET (Homo sapiens, UniProt P07949, M918T)",cell-free assay,75
"STK32A (Homo sapiens, UniProt Q8WU08)",cell-free assay,97
"DCLK2 (Homo sapiens, UniProt Q8N568)",cell-free assay,100
"EGFR (Homo sapiens, UniProt P00533, del747-752/P753S)",cell-free assay,87
"EGFR (Homo sapiens, UniProt P00533, A750P/del747-749)",cell-free assay,100
"INSRR (Homo sapiens, UniProt P14616)",cell-free assay,67
"CAMK1 (Homo sapiens, UniProt Q14012)",cell-free assay,100
"ACVR2A (Homo sapiens, UniProt P27037)",cell-free assay,100
"Tyrosine-protein kinase ABL1, phosphorylated (ABL1, Homo sapiens, UniProt P00519, Y253F)",cell-free assay,100
"HIPK3 (Homo sapiens, UniProt Q9H422)",cell-free assay,100
"WNK4 (Homo sapiens, UniProt Q96J92)",cell-free assay,79
"DSTYK (Homo sapiens, UniProt Q6XUX3)",cell-free assay,100
"FLT3 (Homo sapiens, UniProt P36888, D835Y)",cell-free assay,100
"Myosin-IIIa (MYO3A, Homo sapiens, UniProt Q8NEV4)",binding,100
"CDK11A (Homo sapiens, UniProt Q9UQ88)",binding,100
"GAK (Homo sapiens, UniProt O14976)",cell-free assay,88
"STK39 (Homo sapiens, UniProt Q9UEW8)",cell-free assay,55
"PIP4K2B (Homo sapiens, UniProt P78356)",cell-free assay,74

# Sample 4 — technique: Incucyte 3D growth; concentration: 30 µM; reading: higher = more growth
# SMILES: CC(C)(C(=O)O)[C@H](NC(=O)Cc1cccc(I)c1)c1ccc2oc(=O)[nH]c2c1
cell line,time,spheroid area
NCI-H358,288 h,1.28e+07 a.u. and 1.23e+07 a.u.
A375,96 h,5.3e+07 a.u. and 5.67e+07 a.u. and 7.01e+07 a.u. and 6.91e+07 a.u. and 5.35e+07 a.u. and 6.17e+07 a.u.
PC-9,54 h,4.58e+08 a.u. and 4.31e+08 a.u. and 4.39e+08 a.u. and 4.37e+08 a.u. and 4.43e+08 a.u. and 4.32e+08 a.u.
IPC-298,54 h,2.99e+07 a.u. and 2.22e+07 a.u. and 3.06e+07 a.u. and 2.7e+07 a.u. and 2.58e+07 a.u. and 2.37e+07 a.u.
A375,390.52 h,1.78e+08 a.u. and 1.56e+08 a.u. and 1.64e+08 a.u. and 1.68e+08 a.u. and 1.89e+08 a.u. and 1.74e+08 a.u.
A375,204 h,1.07e+08 a.u. and 1.21e+08 a.u. and 1.19e+08 a.u. and 1.25e+08 a.u. and 1.41e+08 a.u. and 1.22e+08 a.u.
A375,30 h,8.78e+06 a.u. and 1.44e+07 a.u. and 1.51e+07 a.u. and 1.45e+07 a.u. and 9.04e+06 a.u. and 1.64e+07 a.u.
A375,288.52 h,2.03e+08 a.u. and 1.75e+08 a.u. and 1.77e+08 a.u. and 1.84e+08 a.u. and 2.01e+08 a.u.
NCI-H358,90 h,4.33e+06 a.u. and 3.38e+06 a.u. and 4.42e+06 a.u. and 4.89e+06 a.u. and 3.94e+06 a.u. and 3.69e+06 a.u.
IPC-298,180 h,2.79e+07 a.u. and 2.65e+07 a.u. and 2.14e+07 a.u. and 3.05e+07 a.u. and 3.53e+07 a.u. and 2.8e+07 a.u.
MEL-JUSO,222.52 h,1.66e+07 a.u. and 2.54e+07 a.u. and 1.58e+07 a.u. and 2.28e+07 a.u. and 1.55e+07 a.u. and 1.72e+07 a.u.
PC-9,144 h,1.14e+09 a.u. and 1.15e+09 a.u. and 1.12e+09 a.u. and 1.09e+09 a.u. and 1.06e+09 a.u.

# Some of these lines once more (sample 3):
target,effect on,remaining binding [%]
"PIP4K2B (Homo sapiens, UniProt P78356)",cell-free assay,74
"DCLK2 (Homo sapiens, UniProt Q8N568)",cell-free assay,100
"STK32A (Homo sapiens, UniProt Q8WU08)",cell-free assay,97
"WEE2 (Homo sapiens, UniProt P0C1S8)",cell-free assay,100
"EGFR (Homo sapiens, UniProt P00533, del747-752/P753S)",cell-free assay,87
"EGFR (Homo sapiens, UniProt P00533, A750P/del747-749)",cell-free assay,100
"ACVR2A (Homo sapiens, UniProt P27037)",cell-free assay,100
"CAMKK2 (Homo sapiens, UniProt Q96RR4)",cell-free assay,94
"PAK1 (Homo sapiens, UniProt Q13153)",cell-free assay,87
"NEK6 (Homo sapiens, UniProt Q9HC98)",cell-free assay,100
"Tyrosine-protein kinase ABL1, phosphorylated (ABL1, Homo sapiens, UniProt P00519, Y253F)",cell-free assay,100
